Assay results collected from several papers.
Every numbered part comes from another study and shows a few of its results, in no order. Changes are numbered by the printed parent chain.

Sample 1
Target: CCND2, cyclin fold, Cln2 fusion (human)
Method: yeast growth competition, sequencing
Matrix: yeast
Setting: strong parent motif
Relative to: not given
Direction: higher = stronger binding
Starting sequence: INSM1 docking peptide (human); PKAIRKLHFEDEV
| Variant | normalised enrichment score |
| --- | --- |
| E12R | 1.37 |
| A3D | -0.201 |
| H8Y | 1.74 |
| R5S | 0.472 |
| H8I | 3.32 |
| D11V | 1.67 |
| R5V | 0.52 |
| K2T | 2.84 |

Sample 2
Target: RNA binding protein fox-1 homolog 2, RRM domain, GST-SBP tag (RBFOX2, Homo sapiens, UniProt O43251-10, residues 100-194)
Method: RNA Bind-n-Seq
Form: RNA
Matrix: in vitro
Concentration: 365 nM
Setting: natural RNA segment, single round, ends assumed
Relative to: no-protein control
Direction: higher = stronger binding
Constant ends, left off below: GGGAGUUCUACAGUCCGACGAUC … UGGAAUUCUCGGGUGCCAA
Construct (chain): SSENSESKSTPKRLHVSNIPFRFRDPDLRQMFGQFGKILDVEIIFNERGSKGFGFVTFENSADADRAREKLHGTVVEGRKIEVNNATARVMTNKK
| Sequence | RBNS enrichment (R) |
| --- | --- |
| UACACGUACAAGCGCCUGUGCUAACGGAGCUGGGACUCGGGACUCCCCCGCCUGUCAGUCUGGCCCCCUGUGCUUUGCUCCCUGUGCUCAGUGGUCACUUUCCCGCUCCC | 1.44 |
| ACAACGAUUUUCCCAAAUUUUGUACAAUCUGUCCUGGAAAGCAAACCCCUUUUAAAAUCUAAUGUCUGGGCUUUGAGUAUUAGCUCAUUUAGGGUGGACAAAUGCAUUAC | 0.461 |
| UUUAACAAACUAGCAUGAGGCUUUUUAUAUCUAAAUGCUACGUGAUAGACAAUUUCAGCUAGCCACAUAUUGUAUGUAUGAGAUUCAUAAAGACUUUCAAUCAUUUCAUU | 0.538 |
| UUUGUAUUUUUAGUAGAGAAGGGAUUUCACCAUGUUGGCCGGGCUGGUCUCAAACUCCUAAGGUCAUCCACCUGCCUCGGCCUCCCAGAGUGCUGAGAUUACAGGCGUGA | 0.567 |
| ACGUGGAUCCAUCCCUGCCAUUGUGUGAGUCAGAGGGAUAGAUCUGAAGCCUGUGAAUGAUGUCUGGUACACCACAGUGUUUUCUCCAGAGAACUGGCCUAAGCUCUAGA | 0.79 |
| GAAAUGCCUCUUGGUCCUGUCCAAGUGUAUCUUUCACUGAUUUCUGAAUCAUGUUCUAGUUGCUUGACCCUGCCACAUGGGUCCAGUGUUCAUCUGAGCAUAACUGUACU | 0.265 |
| CCUCUUGGUUAGAGGAGUGAGUUUCUUUUUUUUCCAUUAACUUGUUUCCUGAUCGAGAAACACGUGCUAAGAUUUCUAUGAAUUCUGCUUCUUUAUAGUUAAGUCUCUGU | 0.697 |
| CCUGGGACUUCCCUGCAGUGAGAGAGCAUCUCCCCCUGGUCCAUGCCCCUCCUGUGCAGAAGGGAGCCUGCAUCCCUCCCUUCCUUUCUCUUACUGCCAUAGGAAAUUAU | 1.62 |

Sample 3
Target: RING finger protein unkempt homolog, zinc fingers 1-6, GST-SBP tag (UNK, Homo sapiens, UniProt Q9C0B0, residues 30-357)
Method: RNA Bind-n-Seq
Form: RNA
Matrix: in vitro
Concentration: not given
Setting: RNA with constant flanks, ends assumed
Relative to: input RNA pool
Direction: higher = stronger binding
Constant ends, left off below: GGGAGUUCUACAGUCCGACGAUC … CAACAGAGGAUUGAGCAUCA
Target sequence (chain): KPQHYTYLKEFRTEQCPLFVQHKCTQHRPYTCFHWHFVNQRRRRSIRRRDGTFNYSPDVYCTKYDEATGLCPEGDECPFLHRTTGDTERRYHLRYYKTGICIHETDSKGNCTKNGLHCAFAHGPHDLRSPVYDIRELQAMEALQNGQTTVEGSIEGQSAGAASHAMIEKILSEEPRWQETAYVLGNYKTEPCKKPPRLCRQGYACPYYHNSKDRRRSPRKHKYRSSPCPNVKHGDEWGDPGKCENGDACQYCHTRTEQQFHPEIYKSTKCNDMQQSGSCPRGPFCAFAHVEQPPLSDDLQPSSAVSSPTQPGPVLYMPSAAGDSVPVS
| Sequence | bound/input enrichment [ratio] |
| --- | --- |
| GUACAGUAGACGAGGCUUCCUUGGAAUGGUUUGCCCCGCUGCAUUGGUUUGGGUUUAAGCCCGUUAUACUUCUGUCACUAUUCUAAGUUAAAUGCAAAACUUUCAAGUAGUUUUAAUGAA | 0.38 |
| AUUAUAUAUGAUCGUUUUUCUGAUCCUAAGUUUGUUGAGCAGUUAAUCACAUUUCUAUCUUCCGAAGACAGAAAAGGAAGAGAUAAGUUUAGUCCCCGGCGUUUCUGCCUCUUUAAGGGU | 0.27 |
| GAAACUCCCCAUUGUCACUGAGAACCACCAAAUCUGACUUUUACAUUUGGUCUCAGAAUUCCGGUUCCUGCCCUGUUGGUUUUUUUUUUUUUUUUUUAAACAGUUUUCAAAAGUUCUUAA | 1.31 |
| GAAGAUAAGCUGGAAUGUUCUGAAGAACUGGGUGAUCUCGUUAAAUCUGUGGACCCAACAUCCGCACUGAGUGUUUACCUCAGGGCCAAUGUACCUAAUAAAGUCAUCCAGUGCUUUGCA | 0.12 |
| GCCAAGGCCAUCCAGCUGAACAGCAACAGCGUCCAGGCUCUGUUACUCAAGGGGGCGGCGCUCCGGAACAUGGGGAGGGUCCAGGAAGCCAUCAUACACUUUCGGGAGGCCAUCAGGCUU | 0.0956 |
| AAAGUGAAACUGGCAGCUGUGGAUGCUACAGUCAAUCAGGUUCUGGCCUCCCGAUACGGGAUCCGAGGAUUUCCUACAAUCAAGAUAUUUCAGAAAGGCGAGUCUCCUGUGGAUUAUGAC | 0.169 |
| GGAGGUCAGGUUCCUGACACAAACUACAUAUUUAUGGGUGAUUUUGUAGACAGAGGUUACUACCGUUUGGAGACCUUCACUUAUCUUCUUGCACUAAAGGCUAAGUGGCCUGACCGUAUU | 0.212 |
| UUAAUAGGCUUAAUAAUUGUUGGCAAAGAUCCUUUUGCUUUUUUCGGCAUGCAAGCUCCCCGCAUCUGGCAGUGGGGCCAAGAAAAUAAGGUUUAUGCAUGUAUGAUGGUUUUCUUCCUG | 1.02 |

Further values, each from its own experiment
| Molecule | target | test | system | conditions | scale | measurement | result |
| --- | --- | --- | --- | --- | --- | --- | --- |
| PhoQ, residues 284 288 289 292 302 303 TLSLKA | PhoP, residues 12 14 15 18 19 GHCSL (Escherichia coli, UniProt P23836) | Sort-seq, refers to: YFP reporter | E. coli | PhoQ-PhoP variant library, added: 10 µM Mg2+ | relative to: high Mg2+ state, higher = stronger signaling | fold induction | 4.03 |

For quick reference, copied from above (sample 1):
| Variant | normalised enrichment score |
| --- | --- |
| A3D | -0.201 |
| H8Y | 1.74 |
| R5S | 0.472 |
| H8I | 3.32 |
